Measured values gathered from unrelated publications.
Compare with care: the assays were run in different laboratories. Numbers after ± are the reported error.

The growth of CC(=O)OC[C@H]1O[C@@H](Sc2sc(C(=O)c3ccc(C)cc3)c(N)c2-c2nc3ccccc3s2)[C@H](OC(C)=O)[C@@H](OC(C)=O)[C@@H]1OC(C)=O is reported as 58.6% (OVCAR-5; SRB; 10 µM, 48 h; reference: untreated).
The growth of COc1cc(CNC(=O)C[C@H](C)CCC=C(C)C)ccc1OCc1cn(-c2ccc(Br)cc2)nn1 is reported as 74% (LOX IMVI; SRB; 10 µM, 48 h).
COc1cc(CN2CCN(c3ccccc3F)CC2)c2cc3[n+](cc2c1O)CCc1cc2c(cc1-3)OCO2 has a therapeutic index of 21.5 (HeLa and MDCK; SRB; 48 h; reference: CC50 MDCK over IC50 HeLa).
The growth percent of COc1cc(CNC(=O)C[C@H](C)CCC=C(C)C)ccc1OCc1cn(-c2ccccc2F)nn1 is reported as 60.6% (T47D breast cancer cells; SRB; 10 µM, 48 h).
For O=Cc1c(O)ccc2ccccc12, “log2 fold change” read 2.6 (HUVEC; RNA sequencing, item: SAT1; 75 µM, 24 h; reference: DMSO).
The inhibition of CC(C)(C)C(=O)Nc1ccc2[nH]c(CN3CCC(N(CCCN4CCOCC4)CC4OC(n5cnc6c(N)ncnc65)C(O)C4O)CC3)nc2c1 (centres unmarked) is reported as 77.8% (H460 R231Q cells; colony formation; 5 µM).
COc1cc(CNC(=O)C[C@H](C)CCC=C(C)C)ccc1OCc1cn(-c2ccccc2)nn1 has a growth percent of 74.3% (EKVX; SRB; 10 µM, 48 h).
The EC50 of CSc1ccc(/C=C2/C(C)=C(CC(=O)NCCN(C)C)c3cc(F)ccc32)cc1 is reported as > 7.57 µM (BJ; cytotoxicity).
With COc1cc(CNC(=O)C[C@H](C)CCC=C(C)C)ccc1OCc1cn(-c2cccc(C(F)(F)F)c2)nn1 the growth percent was 32.4% (T47D breast cancer cells; SRB; 10 µM, 48 h).
The TGI of O=C1Nc2ccc(Cl)cc2C1=Cc1c(Cl)[nH]c2c1ccc1ccccc12 is reported as 6.17 µM (colon cancer subpanel of NCI-60; 48 h).
The cell proliferation of COc1ccc(CN(C(=O)c2sc3ccccc3c2Cl)C2CCC(N)CC2)cc1-c1ccc(C#N)cc1 (centres unmarked) is reported as ~50% (rat cerebellar granule neuron precursors; [3H]-thymidine incorporation; 5 µM; reference: Hh protein 50 nM).
COc1ccc(C2=Nn3c(NN=C4C(=O)N(C)c5ccc(Br)cc54)nnc3SC2)cc1 gave an inhibition of 17% (ACHN; cell growth or viability, SRB; 10 µM).
The IFN-γ increase of O=C1NC(=O)C(=Cc2ccc(-c3cccc(C(F)(F)F)c3)o2)S1 is reported as 212% (PBMC; ELISA; 10 µM, 48 h; reference: untreated).
For COc1cc(CNC(=O)C[C@H](C)CCC=C(C)C)ccc1OCc1cn(-c2cccc(Cl)c2)nn1, the growth percent was 52.5% (Hs-578T breast cancer cells; SRB; 10 µM, 48 h).
For O=[N+]([O-])c1c(Nc2cc(F)cc(Cl)c2)ccc2nonc12, mRNA level read “no effect” (Hep3B; item: HIF1A; 1 or 10 µM).
For CC(C)C[C@@H]1NC(=O)[C@H](C(C)C)NC(=O)[C@H](CC(N)=O)NC(=O)[C@H](CO)NC(=O)[C@H](CO)NC(=O)[C@H](CC(=O)O)NC(=O)[C@H](CC(=O)O)NC(=O)[C@H](Cc2ccccc2)NC(=O)[C@H](Cc2ccc(O)cc2)NC(=O)[C@@H](N)CSSC[C@@H](C(=O)N[C@@H](CCCCN)C(=O)N[C@@H](CCCCN)C(=O)N[C@@H](Cc2ccc(O)cc2)C(=O)N[C@@H](CCCNC(=N)N)C(=O)N[C@@H](CO)C(=O)O)NC1=O, mRNA level read “inhibited” (MCT cells; qPCR, item: Snail, CTGF; concentration not given, added: TGF-β1 and EGF).
With CC(C)=CCc1c(OCC2OC2(C)C)ccc2ccc(=O)oc12 (centres unmarked) the combination index was 0.58 (COLO 320 (ABCB1-overexpressing, multidrug-resistant); cell growth; 150 µM starting, CI at ED50, added: doxorubicin, ratio 139.36:1).
COc1cc(CNC(=O)C[C@H](C)CCC=C(C)C)ccc1OCc1cn(-c2ccc(Cl)cc2Cl)nn1 gave a growth percent of 14.1% (RXF 393; SRB; 10 µM, 48 h).
C=C(CC)C(=O)c1ccc(OCC(=O)NCCNC(=O)COc2ccc(C(=O)C(=C)CC)c(Cl)c2Cl)c(Cl)c1Cl has an apoptosis increase of ~4 fold (SGC-7901/DDP cisplatin-resistant; 2.0 µM, added: cisplatin 2 µM; reference: compound alone corrected).
CC(Cc1ccc(Cl)cc1)=C(c1ccc(Cl)cc1)c1ccc(OCCN(C)C)cc1 has a GI50 of 4.79 µM (OVCAR-5; cell growth or viability).
The growth percent of COc1cc(CNC(=O)C[C@H](C)CCC=C(C)C)ccc1O is reported as 96.2% (ACHN; SRB; 10 µM, 48 h).
With CC(=O)OC[C@H]1O[C@@H](Sc2sc(C(=O)c3ccc(Br)cc3)c(N)c2-c2nc3ccccc3s2)[C@H](OC(C)=O)[C@@H](OC(C)=O)[C@@H]1OC(C)=O the growth was 65.7% (OVCAR-5; SRB; 10 µM, 48 h; reference: untreated).
The growth percent of COc1cc(CNC(=O)C[C@H](C)CCC=C(C)C)ccc1OCc1cn(-c2ccccc2Cl)nn1 is reported as 66.5% (MDA-MB-435 melanoma cells; SRB; 10 µM, 48 h).
C=C(C)[C@@H]1CC[C@]2(C(=O)OCO/N=[N+](\[O-])N3CCCC3)CC[C@]3(C)[C@H](CC[C@@H]4[C@@]5(C)CC[C@H](OC(C)=O)C(C)(C)[C@@H]5CC[C@]43C)[C@@H]12: protein level “increased” (B16-F10; western blot, item: pro-apoptotic proteins; 0.25 to 1.0 µM, 48 h).
N[C@@H](CCC(=O)N[C@@H](CS[Se]Cc1ccc(-c2cc(C(F)(F)F)nn2-c2ccc(S(N)(=O)=O)cc2)cc1)C(=O)NCC(=O)O)C(=O)O — result for “increase in apoptosis”: ~200% (UACC-903 and UACC-903; 15.5 µM, 24 h).
With CC(C)Cc1ccc(C(C)C(=O)N/N=C/c2ccc(OCC(=O)N/N=C/c3c(O)ccc4ccccc34)cc2)cc1 (centres unmarked) the viability was 90.2% (U87 MG; MTT; 150 µM, 48 h).
With N[C@H](CSC(F)(F)[18F])C(=O)O the protein incorporation was ~5% (C6; concentration not given, 30 min).
For O=C(N1CCCC1)n1cc(-c2ccc(-c3ccccc3)cc2)nn1, the SILAC ratio was 0.97 ± 0.18 (mouse T-cells; N-terminal labeled proteins, N-terminal enrichment proteomics, item: EFHD2; 1 nM, 6 h; reference: DMSO).
O=C1OCC2=C1C(c1cccc(Br)c1)C1=C(N2)C(=O)c2ccccc2C1=O (centres unmarked) — result for “late apoptotic cells”: 3.39% (SK-LU-1 cells; annexin V/PI; 0.16 µM, 24 h).
With CC(C)Cc1ccc(C(C)C(=O)N/N=C/c2ccc(OCC(=O)N/N=C/c3ccc([N+](=O)[O-])cc3)cc2)cc1 (centres unmarked) the viability was 73.9% (U87 MG; MTT; 100 µM, 48 h).
Nc1nc2cc(CC[C@H]3C[C@@H](n4ccc5c(N)ncnc54)[C@H](O)[C@@H]3O)ccc2cc1Br: “SmD1/3 dimethylation reduction” > 80% (COLO 699; item: SmD1/3-Me2; 10 nM, 72 h).
Cc1cc(Nc2ccc(NC(=O)c3ccc(NC(=O)c4ccncc4)cc3)cc2)nc(N)n1 has a reporter reactivation of 1 ± 0.1 fold (KG-1 with methylated CMV-luciferase; luciferase reporter gene; 0.5 µM, 24 h; reference: untreated).
With Cc1nn(-c2ccc(S(=O)(=O)N[C@@H](CO)CC(C)C)cc2)c2nn3nnnc3nc12 the tail DNA was 29.5 ± 2.44% (HT-29; DNA damage, alkaline comet; 2 µM, 24 h).
Under “ConA binding to cell surface”, CCC[C@H]1CC[C@H](c2ccc(NC(=S)NC[C@@H]3[C@@H](O)[C@@H](O)[C@H]4[C@H](O)CCCN43)cc2)CC1 is recorded as “increased” (Huh-7; fluorescent lectin imaging; 10 µM, 48 h).
The combination index of CC1(C)OC(=O)C[C@H](O)[C@]2(C)[C@H]3CC[C@@]4(C)[C@H](c5ccoc5)OC(=O)[C@H]5O[C@]54[C@]3(C)C(=O)C[C@@H]12 is reported as 1.02 (COLO 320 (ABCB1-overexpressing, multidrug-resistant); cell growth; 200 µM starting, CI at ED50, added: doxorubicin, ratio 46.4:1).
For COc1ccc(NC(=O)COc2ccc(/C=C/C(C)=N/O)cc2OC)cc1, “cells expressing TNF-α” read 19.8% (SH-SY5Y; flow cytometry; 10 µM, added: amyloid-β 10 µM).
With CC(C)Cc1ccc(C(C)C(=O)N/N=C/c2ccc(OCC(=O)N/N=C/c3cccc(O)c3)cc2)cc1 (centres unmarked) the viability was 120% (U87 MG; MTT; 10 µM, 48 h).
For COc1cc2c(OC3OCC(OC)C(OC)C3OC(=O)c3ccc(Br)cc3)c3c(c(-c4ccc5c(c4)OCO5)c2cc1OC)C(=O)OC3 (centres unmarked), mRNA level read “decreased” (CAL-27; RT-qPCR, item: CTSD; concentration not given, 72 h).

For quick reference, copied from above:
Under “ConA binding to cell surface”, CCC[C@H]1CC[C@H](c2ccc(NC(=S)NC[C@@H]3[C@@H](O)[C@@H](O)[C@H]4[C@H](O)CCCN43)cc2)CC1 is recorded as “increased” (Huh-7; fluorescent lectin imaging; 10 µM, 48 h).
The combination index of CC1(C)OC(=O)C[C@H](O)[C@]2(C)[C@H]3CC[C@@]4(C)[C@H](c5ccoc5)OC(=O)[C@H]5O[C@]54[C@]3(C)C(=O)C[C@@H]12 is reported as 1.02 (COLO 320 (ABCB1-overexpressing, multidrug-resistant); cell growth; 200 µM starting, CI at ED50, added: doxorubicin, ratio 46.4:1).
For COc1ccc(NC(=O)COc2ccc(/C=C/C(C)=N/O)cc2OC)cc1, “cells expressing TNF-α” read 19.8% (SH-SY5Y; flow cytometry; 10 µM, added: amyloid-β 10 µM).
